Experimental data from different studies.
Numbers after ± are the reported error.
Target: Cytochrome P450 2C9 (CYP2C9, Homo sapiens, UniProt P11712)

CCN(CC)CCOc1ccc(-c2nnn(Cc3ccc(OC)cc3)c2N)cc1  IC50 (inhibitor): > 50 µM
Cc1cc(-c2ccc3ccccc3c2)nnc1NCCN1CCN(C)CC1  remaining compound (substrate; recombinant enzyme; 100 nM, 1 h): 87%
CCc1nnc(NS(=O)(=O)c2ccc(NC(=O)c3cccc4ccccc34)cc2)s1  inhibition (10 µM): 78%
Cc1cccc2c1C1(CCN(C(=O)c3ccc4[nH]ncc4c3)CC1)C(=O)N2CC(=O)NCC(F)(F)F  IC50 (enzyme activity, inhibitor): 8.2 µM
C[C@@H](c1ccc2nccn2c1)n1nnc2ncc(-c3cn[nH]c3)nc21  time-dependent inhibition (human liver microsomes; 10 and 50 µM, 30 min preincubation, together with: ± NADPH): < 20%
O=C(CN1C(=O)C2(CCN(C(=O)c3cnc4[nH]ncc4c3)CC2)c2c(Br)cccc21)NCC(F)(F)F  IC50 (enzyme activity, inhibitor): 14 µM
C[C@@H](c1ccc2nccn2c1)n1nnc2nc(O)c(-c3cnn(C)c3)nc21  IC50 (enzyme activity, inhibitor; human, liver microsomes): 11 µM
CN[C@@H]1[C@H](O)[C@H](NC)[C@H]2O[C@]3(O)[C@H](O[C@@H]2[C@H]1O)O[C@H](C)C[C@H]3NC(=O)Cc1ccc(Cl)cn1  inhibition (10 µM): 2%
O=C(CN1C(=O)C2(CCN(C(=O)c3cnc4[nH]ncc4c3)CC2)c2c(Cl)cccc21)NCC(F)(F)F  IC50 (enzyme activity, inhibitor): 12 µM

Repeated from above:
O=C(CN1C(=O)C2(CCN(C(=O)c3cnc4[nH]ncc4c3)CC2)c2c(Cl)cccc21)NCC(F)(F)F  IC50 (enzyme activity, inhibitor): 12 µM
